Measurements from different studies.
Each line is one published result; not all experiments were run side by side. ± marks the error that the study gave. Bridges are numbered along the chain shown (N, C = ends). Where no end group is shown, it is not given here.
B1: protein (UniProt A0A4Y6I0S2); chain MTFEEKPMKFDGLDIEGVAFAPSVAALGSAKPLVLGGAGDRGLEINGNYIKFTAIGIYIEDGIIPHLSSKLSGKTVLELCEKDLLFEEVIYAPFEKLVRVVFIAPLTGIQYSEKVLERISVQALYTDIKEEHKQQFLEIFKGESFPPQSSAILSFSKEGLKVAFSKGDDVPAKAVGTIENARFADAVLGTIIWRDGVSPAAKVSLAERVSKYLQLGPSDGLASVPQSK
B2: FMO3 E308G (Homo sapiens, UniProt P31513); chain GKKVAIIGAGVSGLASIRSCLEEGLEPTCFEKSNDIGGLWKFSDHAEEGRASIYKSVFSNSSKEMMCFPDFPFPDDFPNFMHNSKIQEYIIAFAKEKNLLKYIQFKTFVSSVNKHPDFATTGQWDVTTERDGKKESAVFDAVMVCSGHHVYPNLPKESFPGLNHFKGKCFHSRDYKEPGVFNGKRVLVVGLGNSGCDIATELSRTAEQVMISSRSGSWVMSRVWDNGYPWDMLLVTRFGTFLKNNLPTAISDWLYVKQMNARFKHENYGLMPLNGVLRKEPVFNDELPASILCGIVSVKPNVKEFTGTSAIFEDGTIFEGIDCVIFATGYSFAYPFLDESIIKSRNNEIILFKGVFPPLLEKSTIAVIGFVQSLGAAIPTVDLQSRWAAQVIKGTCTLPSMEDMMNDINEKMEKKRKWFGKSETIQTDYIVYMDELSSFIGAKPNIPWLFLTDPKLAMEVYFGPCSPYQFRLVGPGQWPGARNAILTQWDRSLKPMQTRVVGRLQKPCFFFHWLKLFAIPILLIAVFLVLT
B3: UGT1A9 (Homo sapiens, UniProt O60656); chain GKLLVVPMDGSHWFTMRSVVEKLILRGHEVVVVMPEVSWQLGRSLNCTVKTYSTSYTLEDLDREFKAFAHAQWKAQVRSIYSLLMGSYNDIFDLFFSNCRSLFKDKKLVEYLKESSFDAVFLDPFDNCGLIVAKYFSLPSVVFARGILCHYLEEGAQCPAPLSYVPRILLGFSDAMTFKERVRNHIMHLEEHLLCHRFFKNALEIASEILQTPVTEYDLYSHTSIWLLRTDFVLDYPKPVMPNMIFIGGINCHQGKPLPMEFEAYINASGEHGIVVFSLGSMVSEIPEKKAMAIADALGKIPQTVLWRYTGTRPSNLANNTILVKWLPQNDLLGHPMTRAFITHAGSHGVYESICNGVPMVMMPLFGDQMDNAKRMETKGAGVTLNVLEMTSEDLENALKAVINDKSYKENIMRLSSLHKDRPVEPLDLAVFWVEFVMRHKGAPHLRPAAHDLTWYQYHSLDVIGFLLAVVLTVAFITFKCCAYGYRKCLGKKGRVKKAHKSKTH

Molecule | tested on | assay | test system | conditions | scale | measurement | value
CC(C)[C@H](NC(=O)[C@@H]1CCCN1C(=O)[C@H](CCCNC(=N)N)NC(=O)[C@H](CS)NC(=O)[C@H](Cc1c[nH]c2ccccc12)NC(=O)[C@H](CCCNC(=N)N)NC(=O)[C@@H](Cc1ccccc1)NC(=O)[C@H](Cc1c[nH]cn1)NC(=O)[C@H](CCC(=O)O)NC(=O)[C@H](CS)NC(=O)[C@H](CS)NC(=O)[C@H](CCCCN)NC(=O)[C@@H]1CC(=O)N[C@@H](CCCNC(=N)N)C(=O)N[C@@H](C)C(=O)N[C@@H](CC(=O)O)C(=O)N[C@H](Cc2ccc(O)cc2)C(=O)N1)C(N)=O [technetium-99m labelled] |  |  | C57 mice, intestines | iv, 0.037 MBq, 24 h |  | tissue uptake | 0.85 ± 0.42 %ID
PRL (Homo sapiens, UniProt P01236) |  | NMR, measured: His180 |  | 35 °C, 25 mM NaCl, apparent; independent-site fit, numbering of the source |  | pKa | 5.86
B1 (protein) | O=C(/C=C/c1ccc(O)cc1)c1c(O)cc(O)cc1O | steady-state kinetics |  |  |  | Vmax | 205 µmol/min/mg
COc1cccc2c1C(=O)c1c(O)c3c(c(O)c1C2=O)C[C@@](O)(C(=O)CO)C[C@@H]3O[C@H]1C[C@H](NC(=O)[C@@H]2CCCN2C(=O)CN)[C@H](O)[C@H](C)O1 |  |  | mouse, E0771 tumour-bearing, tumor | intravenous, 92 µmol/kg PhAc-ALGP-Dox |  | Tmax | 15 min
Transferrin | human IAPP | thioflavin T fluorescence |  | 0.5 µM, pH 8.0, 37 °C, with: 25 µM hIAPP |  | fibrillization delay time | ≥ 9 h
Insulin human |  |  | rat, substantia nigra/VTA | intranasal, 20 µg per nostril, 60 min |  | brain concentration | 92.7 ± 15.3 pg/mg tissue
B2 (FMO3 E308G) | CN1CCC[C@H]1c1cccnc1 | steady-state kinetics | HEK293 microsomes | 37 °C, not purified, with: NADPH regenerating system |  | Vmax | 1.3e-05 µmol/min/mg
CGGQDLKSC (disulfide 1-9 (inferred)) (disulfide) | CuFi-1 | flow cytometry | nanoparticles after CF sputum permeation | 2 h, 37 °C | relative to: 1 kDa mPEG-coated nanoparticles | cell uptake | ~3 fold
B3 (UGT1A9) | COc1ccc(O)cc1 | steady-state kinetics |  | pH 7.4, 37 °C |  | Km | 154 µM

Excerpt of the above:
Molecule | tested on | assay | test system | conditions | scale | measurement | value
COc1cccc2c1C(=O)c1c(O)c3c(c(O)c1C2=O)C[C@@](O)(C(=O)CO)C[C@@H]3O[C@H]1C[C@H](NC(=O)[C@@H]2CCCN2C(=O)CN)[C@H](O)[C@H](C)O1 |  |  | mouse, E0771 tumour-bearing, tumor | intravenous, 92 µmol/kg PhAc-ALGP-Dox |  | Tmax | 15 min
